Published values pooled from the literature.
Compare with care: the assays were run in different laboratories. Numbers after ± are the reported error.

`CC(C)=CCC1=C(O)c2c(occ(-c3ccc(O)cc3)c2=O)C(CC=C(C)C)(CC=C(C)C)C1=O` gave an IC50 of 17.5 µM (NHDF; cell growth or viability, MTT; 24 h).
`CCCCn1cc(C(=O)O)c(=O)c2cc(F)c3c(nnn3-c3ccccc3OC)c21` gave an IC50 of 12.5 ± 1.26 µg/mL (A375-S2; cell growth, SRB; 72 h).
`CC(C)=CCOc1ccc(-c2coc3cc4c(c(O)c3c2=O)C=CC(C)(C)O4)cc1` gave an IC50 of over 100 µM (NHDF; cell growth or viability, MTT; 24 h).
The IC50 of `O=[N+]([O-])c1c(Br)c(Cl)c2cccnc2c1O` is reported as about 49.6 µg/mL (L02; cell growth or viability, CCK-8; 48 h).
`Oc1c(Cl)cc(Cl)c2cccnc12` has an IC50 of 28 µM (MRC5; cell growth or viability, MTT; 48 h).
The IC50 of `Nc1ncnc2c1ncn2C1OC(CO)C2CC=CCC21` (mixture of isomers) is reported as over 100 µM (PHA-stimulated human PBM cells, uninfected; cytotoxicity; 6 days).
For `CC(C)=CCc1c2c(c(O)c3c(=O)c(-c4ccc(O)cc4)coc13)C=CC(C)(C)O2`, the IC50 was 18.2 µM (NHDF; cell growth or viability, MTT; 24 h).
The IC50 of `CCCCn1cc(C(=O)O)c(=O)c2cc(F)c(Nc3ccccc3OC)c([N+](=O)[O-])c21` is reported as 30.4 ± 0.92 µg/mL (MCF7; cell growth, SRB; 72 h).
`CC(=O)Oc1ccccc1/C=C/C(=O)Nc1nc(=O)n([C@@H]2O[C@H](C)[C@@H](OC(C)=O)[C@H]2OC(C)=O)cc1F` gave an IC50 of 98.5 ± 10.5 µM (NHDF; MTT; 72 h, 10% FBS).
For `CCCCn1cc(C(=O)O)c(=O)c2cc(F)c3c(nnn3-c3ccc(OC)cc3)c21`, the IC50 was 431 µM (MCF7; cell growth or viability, SRB).
With `CC(=O)OCC1OC(n2ccc(=O)[nH]c2=O)C2CC=CCC12` (mixture of isomers) the IC50 was over 100 µM (PHA-stimulated human PBM cells, uninfected; cytotoxicity; 6 days).
For `N#C/C(=C\c1cn(-c2ccccc2)nc1-c1ccc(Br)cc1)c1nc2ccccc2[nH]1`, the IC50 was over 100 µM (MRC5; cell growth or viability, ATP luminescence; 72 h).
`CCCCn1cc(C(=O)O)c(=O)c2cc(F)c(Nc3cc(OC)c(OC)c(OC)c3)c([N+](=O)[O-])c21` has an IC50 of 56.2 µM (A375-S2; cell growth or viability, SRB).
With `CC(=O)OCC1OC(n2cc(C=CBr)c(=O)[nH]c2=O)C2CC=CCC12` (mixture of isomers) the IC50 was over 100 µM (PHA-stimulated human PBM cells, uninfected; cytotoxicity; 6 days).
For `Cc1ccc(-c2nn(-c3ccccc3)cc2/C=C(\C#N)c2nc3ccccc3[nH]2)cc1`, the IC50 was over 100 µM (MRC5; cell growth or viability, ATP luminescence; 72 h).
For `CC(=O)Oc1ccc(/C=C/C(=O)Nc2nc(=O)n([C@@H]3O[C@H](C)[C@@H](OC(C)=O)[C@H]3OC(C)=O)cc2F)cc1`, the IC50 was 96 µM (NHDF; MTT; 72 h, 10% FBS).
`N#C/C(=C\c1cn(-c2ccccc2)nc1-c1ccc(F)cc1)c1nc2ccccc2[nH]1` gave an IC50 of 80 µM (MRC5; cell growth or viability, ATP luminescence; 72 h).
With `COc1ccc(CC2COC(=O)C2Cc2ccc3c(c2)OCO3)cc1OC` (mixture of isomers) the IC50 was 3.25 ± 0.62 µM (A2780cis, cisplatin-resistant; cytotoxicity; 72 h).
The IC50 of `N#C/C(=C\c1cn(-c2ccccc2)nc1-c1ccccc1)c1nc2ccccc2[nH]1` is reported as over 100 µM (MRC5; cell growth or viability, ATP luminescence; 72 h).
`CC(=O)Oc1cccc(/C=C/C(=O)Nc2nc(=O)n([C@@H]3O[C@H](C)[C@@H](OC(C)=O)[C@H]3OC(C)=O)cc2F)c1` gave an IC50 of 60 ± 3.17 µM (NHDF; MTT; 72 h, 10% FBS).
`Nc1ccn(C2OC(CO)C3CC=CCC32)c(=O)n1` (mixture of isomers) gave an IC50 of over 100 µM (PHA-stimulated human PBM cells, uninfected; cytotoxicity; 6 days).
`CCCCn1cc(C(=O)O)c(=O)c2cc(F)c(Nc3cccc(OC)c3)c([N+](=O)[O-])c21` gave an IC50 of 174 ± 25.8 µg/mL (A375-S2; cell growth, SRB; 72 h).

Excerpt of the above:
For `Cc1ccc(-c2nn(-c3ccccc3)cc2/C=C(\C#N)c2nc3ccccc3[nH]2)cc1`, the IC50 was over 100 µM (MRC5; cell growth or viability, ATP luminescence; 72 h).
`CCCCn1cc(C(=O)O)c(=O)c2cc(F)c(Nc3cc(OC)c(OC)c(OC)c3)c([N+](=O)[O-])c21` has an IC50 of 56.2 µM (A375-S2; cell growth or viability, SRB).
The IC50 of `CCCCn1cc(C(=O)O)c(=O)c2cc(F)c(Nc3ccccc3OC)c([N+](=O)[O-])c21` is reported as 30.4 ± 0.92 µg/mL (MCF7; cell growth, SRB; 72 h).
